# Assay results pooled from the literature.
# A part holds a random share of what one study measured.

# Block 1
# Target: Interferon regulatory factor 7, full length, phosphomimetic (IRF7, Homo sapiens, UniProt Q92985, residues 1-503, S101K/S471D/S472D/S475D/S476D/S477D/S483D/S484D/S487D)
# Method: protein-binding microarray
# Form: double-stranded DNA, one strand shown
# Matrix: in vitro
# Concentration: 250 nM
# Setting: 60-bp whole probe
# Together with: salmon DNA 0.4 mg/ml
# Relative to: random background probes
# Direction: higher = stronger binding
# All sequences stand within: GCCTAGCAC … GTCTTGATTCGCTTGACGCTGCTG
# Target sequence (chain): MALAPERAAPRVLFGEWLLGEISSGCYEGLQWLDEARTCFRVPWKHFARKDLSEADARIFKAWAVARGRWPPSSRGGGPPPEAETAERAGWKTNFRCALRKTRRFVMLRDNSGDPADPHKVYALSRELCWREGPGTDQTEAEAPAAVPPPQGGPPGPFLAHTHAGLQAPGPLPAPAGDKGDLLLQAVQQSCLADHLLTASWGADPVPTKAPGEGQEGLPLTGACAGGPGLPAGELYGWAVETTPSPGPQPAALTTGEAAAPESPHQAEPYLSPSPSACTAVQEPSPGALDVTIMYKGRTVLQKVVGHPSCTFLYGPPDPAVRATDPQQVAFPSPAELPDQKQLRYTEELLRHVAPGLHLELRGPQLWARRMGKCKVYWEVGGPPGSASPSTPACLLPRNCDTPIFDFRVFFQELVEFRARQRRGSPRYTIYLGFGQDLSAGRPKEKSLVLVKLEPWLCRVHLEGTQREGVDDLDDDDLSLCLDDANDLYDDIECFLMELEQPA
Oligonucleotide,log fluorescence
TCACTACTGTATTTGGCACTGTGCTAG,-0.159 z-score
TCACATGTAAATAATCAGACTGTGCTA,-0.0685 z-score
GACGGTTCCCTTTTCCGGACGTGCTAG,2.9 z-score
CATTTTCTGAATGTCCTCCTGTGCTAG,2.91 z-score
TTAGGTAACGGGACTGGGTTAGTGCTA,-0.085 z-score
TTGGATTCCAGTTTCGATTAGTGCTAG,9.54 z-score
GACGGTCTCCTTATCCGGACGTGCTAG,0.451 z-score
TCAATTCTGAATTCGAAACTGTGCTAG,2.38 z-score
GACGATTTCGGGTTTCGCGACGTGCTA,2.21 z-score
GACGATCACAGTATCGAGACGTGCTAG,0.0592 z-score
CTATGAAGTCATGTCTTCAGGTGCTAG,0.0352 z-score
TTAGATCTCAGTATCGAATAGTGCTAG,0.191 z-score
GACCGTTTCGACACTGGGGACGTGCTA,2.77 z-score
TTAAATATCAGTCTCGATTAGTGCTAG,1.73 z-score
TCATTTACCCATCTCCAACTGTGCTAG,2.01 z-score
GACGGTCTCCTCCTCCTGACGTGCTAG,-0.332 z-score
CTCTACTTGTGTCTAGAGATGTGCTAG,0.121 z-score
TTAGGTATCCTTCTCATTTAGTGCTAG,0.275 z-score
TTAGGTTCCGGTTTCGATTAGTGCTAG,11.9 z-score
TCAAGTTTCACTGCTGCACTGTGCTAG,0.493 z-score
GACGATATCGGGTATCGCGACGTGCTA,-0.253 z-score
GAAATTTTTTTTCTAACTAAGTGCTAG,0.478 z-score
ATCTTCATGAAGTTTTAATAAGTGCTA,0.164 z-score
GACGCTTTCGGGTATCGAGACGTGCTA,1.52 z-score
GACGGTTTCGACACTTGGGACGTGCTA,3.67 z-score

# Block 2
# Target: Ras GTPase-activating protein-binding protein 1, RRM domain (G3BP1, Homo sapiens, UniProt Q13283)
# Chain of UniProt Q13283 (whole entry, looked up): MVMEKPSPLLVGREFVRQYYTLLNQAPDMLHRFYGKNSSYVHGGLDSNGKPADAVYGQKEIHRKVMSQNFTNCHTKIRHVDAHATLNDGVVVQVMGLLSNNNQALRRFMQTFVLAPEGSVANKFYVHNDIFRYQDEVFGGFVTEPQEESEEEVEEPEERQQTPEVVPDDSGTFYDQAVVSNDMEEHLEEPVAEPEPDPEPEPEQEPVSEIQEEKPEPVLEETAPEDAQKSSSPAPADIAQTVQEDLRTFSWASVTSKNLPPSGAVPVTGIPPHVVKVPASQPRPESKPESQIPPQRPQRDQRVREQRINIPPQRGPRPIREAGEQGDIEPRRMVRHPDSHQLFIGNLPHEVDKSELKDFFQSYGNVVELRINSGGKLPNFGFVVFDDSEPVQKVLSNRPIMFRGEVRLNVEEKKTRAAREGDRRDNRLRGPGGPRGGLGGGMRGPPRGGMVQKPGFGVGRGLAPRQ
# Method: RNA Bind-n-Seq
# Form: RNA
# Matrix: in vitro
# Concentration: 1 µM
# Setting: whole 134-nt RNA, ends assumed
# Together with: 150 mM KCl
# Relative to: input library
# Direction: higher = stronger binding
Oligonucleotide,log2 enrichment
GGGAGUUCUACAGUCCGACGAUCACCAUGCAGGUGGGCAUCUUUGGGAAGUGGGGCAAGGGGGGGAUAGGGAGCGGGGUAACACUUUGGGAACAGGUGGUCCCAGGUCGUUUCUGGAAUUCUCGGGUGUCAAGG,0.996
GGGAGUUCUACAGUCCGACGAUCCACAGACAACACGCACCCACACAGACACAGACGGAAGGGGUUGGGAUGGGGACAGGGUGCACAGCAGGGCGGGGUAGGACCCCAGCCCCUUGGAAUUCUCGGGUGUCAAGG,-0.0293
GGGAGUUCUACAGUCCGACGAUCUAACUAUAGAGGAGGAUCUGAUGGAUAUGGCAGUGGACGUGGAUUUGGGGAUGGCUAUAAUGGGUAUGGAGGAGGACCUGGAGGUGGCAAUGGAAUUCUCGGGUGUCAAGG,-0.585
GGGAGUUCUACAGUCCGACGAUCUGGGAGGUGGAUUUUGUUUAUUUUUUUAGCUCAUUUCCAGGGGUGGGAAUUUUUUUUUAAUAUGUGUCGUGAAUAAAGUUGUUUUUGAAAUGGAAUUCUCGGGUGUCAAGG,1.76
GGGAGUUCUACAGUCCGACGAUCCACAGACAACACGCACCCACACAGACACAGAGGGAAGGGGUUGGGAUGGGGACAGGGUGCACAGCAGUGCGGGGUAGGACCCCAGCCCCUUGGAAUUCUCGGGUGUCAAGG,-0.25
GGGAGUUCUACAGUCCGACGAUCACCAUGCAGGUGGGCAUCCUUGGGAAGUGGGGCAAGGGGGGGAUAGGGAGGGGGGUAACACUUUGGGAACAGGUGGUCCCAGGUCGUUUCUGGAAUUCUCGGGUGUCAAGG,-0.457
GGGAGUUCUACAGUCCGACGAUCCACAGACAACACGCACCCACACAAACACAGAGGGAAGGGGUUGGGAUGGGGACAGGGUGCACAGCAGGGCGGGGUAGGACCCCAGCCCCUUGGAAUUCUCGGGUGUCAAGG,-0.123
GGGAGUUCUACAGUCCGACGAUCUCCUGUGCUACACAUCGUAUGUACCGAAUCGGGGCCCCCGGGGCCCCCGGGCCCCCGGGGAAAGUAUUAUGUUACGCCGUUCGGAUCUGCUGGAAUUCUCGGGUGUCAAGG,-0.702
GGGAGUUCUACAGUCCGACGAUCCAAGUCCUGUGCUACACAUCGUAUGUACCGAAUCGGGGUGGGGUGGGGUUUGGGGAAAGUAUUAUGUUACGCCGUUCGGAUCUGCACUUCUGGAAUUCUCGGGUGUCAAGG,1.22
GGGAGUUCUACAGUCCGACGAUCGCAGGAAGUAAAAACAAAUGGAAAUGCUUCGGAUAGUGGCAGGGGUGGGGGGUGCUAAGGAAAGGGUGGGAUGGGAGUGGGUAAAGAGUUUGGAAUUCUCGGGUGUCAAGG,0.728

# Block 3
# Target: Prothrombin, mature alpha-thrombin (F2, Homo sapiens, UniProt P00734)
# Method: aptamer microarray, sandwich
# Form: DNA with 2'F-ANA
# Matrix: in vitro
# Concentration: 200 nM
# Setting: whole 15-mer aptamer, many near background
# Together with: Cy3 exosite-II aptamer, 400 nM
# Direction: higher = stronger binding
# Oligonucleotide: GGTTGGTGTGGTTGG
Modification,mean fluorescence intensity [a.u.]
2'F-ANA at 1 2 3 5 8 11 13 14 15,49.4
2'F-ANA at 1 2 3 4 5 6 8 9 11 15,56.9
2'F-ANA at 2 4 5 7 8 9 10 12 14 15,44.6
2'F-ANA at 1 2 3 4 15,316
2'F-ANA at 1 2 4 5 7 9 11 12 13 14,73.1
2'F-ANA at 3 4 5 12 14,53.9
2'F-ANA at 1 2 7 10 11 13 14,45.3
2'F-ANA at 1 2 3 10 14,64.6
2'F-ANA at 1 2 3 5 9 10 11 14,45.7
2'F-ANA at 2 4 6 11,232
2'F-ANA at 1 5 7 9 10 12 14,44.8
2'F-ANA at 4 5 6 8 10 11 13 14 15,50.5
2'F-ANA at 4 5 7 8 10 12 15,47.9
2'F-ANA at 1 2 3 4 5 12 14,48.1
2'F-ANA at 1 2 4 6 9 12 13 15,157
2'F-ANA at 3 5 6 7 10 11 13 14,47.7
2'F-ANA at 2 4 5 6 7 8 12,245
2'F-ANA at 1 2 3 4 12 13 14,68.4
2'F-ANA at 2 4 6 7 9 12 13 14 15,106

# Block 4
# Target: RNA binding protein fox-1 homolog 2, RRM domain, GST-SBP tag (RBFOX2, Homo sapiens, UniProt O43251-10, residues 100-194)
# Method: RNA Bind-n-Seq
# Form: RNA
# Matrix: in vitro
# Concentration: 365 nM
# Setting: natural RNA segment, single round, ends assumed
# Relative to: no-protein control
# Direction: higher = stronger binding
# Target sequence (chain): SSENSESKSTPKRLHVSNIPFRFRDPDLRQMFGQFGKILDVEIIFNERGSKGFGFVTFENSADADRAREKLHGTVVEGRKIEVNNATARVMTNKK
Oligonucleotide,RBNS enrichment (R)
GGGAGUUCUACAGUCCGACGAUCUGGGACAUUGAAAUCCUGUGAGAGAAUCACAAAGGCACCUCCACCCACUCACGUGCUGUGUGCAUGAGAAGGAGGCCGCUGUGUUCACACUACUGCACCGCACCGCACCCUGGAAUUCUCGGGUGCCAA,2.54
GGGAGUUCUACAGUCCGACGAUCCAUUGCUGCUGCAAGUCUGGCUCUUUGCCUCUGCUGUGCCAGGCCUCCAUGGUGUCUGCAUAGAGCCACGACAGAGGCAUUCCUCAGCUGUACCUCUGACUUUCUUGGCUUGGAAUUCUCGGGUGCCAA,0.172
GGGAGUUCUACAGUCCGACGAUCUAGUUAAGCUGUAUAUUAGCAGUGAAGGUGUUAGAGAGAUGAGAUGAUGGUUUGAAAGUGUGUUGAAGACUAGACUAGAUUUGCAGAAAGAGUAGGACAGAAGAGCGGCGUGGAAUUCUCGGGUGCCAA,6.4
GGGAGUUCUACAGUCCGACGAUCUCUUCCGGGGCUUGUUGCCAUUCCCCUAGAUGCUGGAGAAAGCCUGGGCCAGCCUGUAGCCUGACCGCACUAGUGGUCGCCCAGUCCCCAUCUCUGUGGCCCUCUGAAGCUGGAAUUCUCGGGUGCCAA,0.235
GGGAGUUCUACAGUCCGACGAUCUGGGUCCAGUCUCCAGGACCUAUCUAAAAGAUAGAAGGAAAGAGCCAACUCCCAGAGUUGACCUGUGUCACACCAGAUAACCAACUGCACUGCUGAAGUUUUCACAAGUGUGGAAUUCUCGGGUGCCAA,0.236
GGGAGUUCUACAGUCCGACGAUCUUUGUGUGAUCAUUCCGAGUGUUGCUGCAAGAUUACAGUGGACGUGAUCUUUUAGCAUGUGCUUUUAUAAAAAGUGGUAGCUCCAGAUGAUAUAGCAAUCUACCUUAUAUUGGAAUUCUCGGGUGCCAA,0.655
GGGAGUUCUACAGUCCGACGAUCUUCUCCGCUCUGUGGUGCAAUAUCCCUAUUUGUAGGGACUACAAGAAAUAACUUUGAAGGGAAAAAAGUCAUUAGCUUAGAAUAUGAAGCAUAUCUACCCAUGGCGGAAAUGGAAUUCUCGGGUGCCAA,0.838
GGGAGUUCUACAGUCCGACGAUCGGAAGUGGAUAGAUUGCUUCAGCAAAGUGAACUGUGAGAUCUCCAGGACAGAGGGAGAAAGAUCUGAUCCAAAUGAGAACAGAUUGGUUAUUGCAGGUAUCACAGCCUAAUGGAAUUCUCGGGUGCCAA,0.789
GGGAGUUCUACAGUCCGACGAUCGUCAGCCACAUACCCCCUCUCGCAGUGUUCUGAGGAAAGGAGCCUUCGGCAUAGACUCGUGUAUUUUACCAGCCUAUAAUCGUGCUGAGUGUUGGUUUCCUGCCCCUCCUUGGAAUUCUCGGGUGCCAA,0.289
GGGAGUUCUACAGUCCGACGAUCAAGAGCUGGUCUGGAGUGUCUCCUCACAGUGACCUCUGAGGCCUCAGAAUAGCCUGCCUAAUAAGAAGGACUUCGAACCAUUCCCUAUGGCCUCAUCUGGGACUGUUGGUUGGAAUUCUCGGGUGCCAA,0.21
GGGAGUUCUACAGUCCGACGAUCAUCUUAGUAUAUGUAUUGGAUUCCUGUACUUCCAAAGUCCUGGAAUAUAGUUUUUUUAGUAUAAUUCCACUGCACUUAACACUAAUGUUCAUGUUGGUAUAGAAAUGUCUUGGAAUUCUCGGGUGCCAA,0.609
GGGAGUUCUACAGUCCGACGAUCAAGACCAAAAGGAAACCAACCGAGUGGGGGUUUGGAGGAGUCGGAAGUAGCAUCUCCAGGCAAGCUGCCCGAGGAAGGGAACAAGUCGCAAUGUUAGAAGAUGCCAUAAAUGGAAUUCUCGGGUGCCAA,0.758

# Excerpt of the above (block 1):
Oligonucleotide,log fluorescence
GACGGTTCCCTTTTCCGGACGTGCTAG,2.9 z-score
GACGGTCTCCTCCTCCTGACGTGCTAG,-0.332 z-score
TTGGATTCCAGTTTCGATTAGTGCTAG,9.54 z-score
TCACATGTAAATAATCAGACTGTGCTA,-0.0685 z-score
CTCTACTTGTGTCTAGAGATGTGCTAG,0.121 z-score
TCAAGTTTCACTGCTGCACTGTGCTAG,0.493 z-score
TTAGGTTCCGGTTTCGATTAGTGCTAG,11.9 z-score
TTAGATCTCAGTATCGAATAGTGCTAG,0.191 z-score
GACGCTTTCGGGTATCGAGACGTGCTA,1.52 z-score
